Measurements collected from several papers.
Protocols differ between the studies behind these lines.

| Compound | test | test system | setting | scale | measurement | result |
| --- | --- | --- | --- | --- | --- | --- |
| C[C@H]1C[C@H]2CSC(N)=N[C@@]2(c2nc(NC(=O)c3ccc(OC(F)F)cn3)cs2)CO1 | refers to: Aβ1-40 | healthy adults, plasma | 540 mg single dose, 48 h post-dose | baseline: placebo | percent change from baseline | -90.3% |
| O=C(O)CNC(=O)Cc1ccccc1 | – | ventricular cardiomyocytes, C57BL/6 mouse | dose not given, 0.848 s | – | sarcomere length | 1.62 µm |
| C[C@H](Oc1ccc(Br)cc1-c1ccon1)C(=O)O | muscle velocity recovery cycles | human, tibialis anterior muscle | 200 mg once daily, multiple doses, 30 Hz train for 30 s | baseline: placebo | peak amplitude change | -2.48% |
| CC(C)[C@H](NC(=O)[C@H](Cc1ccc(O)cc1)NC(=O)[C@H](Cc1ccc(O)cc1)NC(=O)[C@@H]1CCCN1C(=O)[C@H](CCC(=O)O)NC(=O)[C@H](CCC(=O)O)NC(=O)[C@H](Cc1c[nH]c2ccccc12)NC(=O)[C@@H]1CCCN1C(=O)[C@@H](NC(=O)[C@H](CCC(N)=O)NC(=O)c1ccc2c(c1)C(=O)OC21c2ccc(O)cc2Oc2cc(O)ccc21)C(C)C)C(=O)N[C@H](C(=O)N[C@@H](CCCCN)C(=O)N[C@@H](CCCCN)C(=O)N[C@@H](CO)C(=O)N[C@@H](CO)C(=O)NCC(=O)NCC(N)=O)C(C)C | nerve branching | human head and neck surgery, nerves | 500 mg, much improved | baseline: white light | share of responses | 0% |
| c1ccc(-c2n[nH]cc2-c2ccnc3ccccc23)nc1 | kinase binding, competitor, MIB/MS competition, refers to: CDC7 | Candida albicans cell lysate | 10 µM | baseline: DMSO | log2 fold change | 1.5 |
| COc1cc(O)c(CC=C(C)C)c(O)c1C(=O)/C=C/c1ccc(O)cc1 | – | male Tac:SW conventional mice, high-fat diet | in diet, 60 mg/kg/day, 10 weeks | – | fasting plasma glucose | 133 mg/dL |
| NC(=O)c1cnc2[nH]ccc2c1N[C@@H]1[C@@H]2CC3C[C@H]1C[C@@](O)(C3)C2 | flow cytometry | Japanese healthy men, blood | oral, 30 mg twice daily, 72 h after day 7 dose | baseline: baseline | CD8+ effector T-cell change | 0.33% |
| N#Cc1ccc2c(c1)[C@H]1CCCN(C(=O)c3ccc4[nH]cnc4c3)[C@H]1C2 | – | human, plasma | 40 mg, day 15, 360 h | baseline: placebo and baseline | change in 1.5-AHG | 1.7% |
| OC(CCN1CCCCC1)(c1ccccc1)C1CC2C=CC1C2 (stereo not drawn) | resting-state EEG | healthy elderly humans | oral, 4 mg, eyes closed, LS mean | baseline: baseline | change in EEG Beta1-power Fz-Cz | -7.9% |
| CCOc1c([C@H](C)n2nc(C)c3c(N)ncnc32)cc(Cl)c(F)c1[C@@H]1CNC(=O)C1 | Olink proximity extension, refers to: FcRL2 | human FL or MZL patients, plasma | dose not given, week 8 day 1, once-daily dosing | baseline: baseline | percent change in level | -58% |
| Cc1cc(C)c(CNC(=O)c2cc(Cl)c3c(c2C)O[C@@](C)([C@H]2CC[C@H](N(C)C)CC2)O3)c(=O)[nH]1 | IWG 2007 criteria | human, relapsed/refractory peripheral T-cell lymphoma | dose not given | – | best overall response CR | 31% |
| C[C@]12CC[C@H](O)CC1=CC[C@@H]1[C@@H]2CC[C@]2(C)C(n3cnc4ccccc43)=CC[C@@H]12 | Western blot | male NRG mouse, CWR22Rv1 xenograft, tumour | dose not given, day 16 | – | AR-V7 protein level | decreased |
| CN[C@@H](C)C(=O)N[C@H]1CN(S(=O)(=O)c2cccc(S(=O)(=O)N3CC[C@H]4CC[C@@H](C(=O)NC(c5ccccc5)c5ccccc5)N4C(=O)[C@@H](NC(=O)[C@H](C)NC)C3)c2)CC[C@H]2CC[C@@H](C(=O)NC(c3ccccc3)c3ccccc3)N2C1=O | RECIST 1.1 | advanced pancreatic cancer patients | dose not given, efficacy-evaluable, added: AG | – | best response progressive disease | 40% |
| N#Cc1ccc2c(-c3ccncc3)c(-c3ccc(F)cc3)nn2c1 | kinase binding, competitor, MIB/MS competition, refers to: PKH3 | Candida albicans cell lysate | 10 µM | baseline: DMSO | log2 fold change | -0.168 |
| Cc1cc(C)c(CNC(=O)c2cc(Cl)c3c(c2C)O[C@@](C)([C@H]2CC[C@H](N(C)C)CC2)O3)c(=O)[nH]1 | – | relapsed/refractory NHL patients, total incl. ATLL and CTCL | oral, dose not given | – | best overall response ND | 5% |
| CC(C)(C)c1sc2ncnc(Oc3c(F)cccc3OC(F)(F)F)c2c1-c1ccc(Cl)cc1 | heat hyperalgesia | humanized MrgprX1 mice, CCI | oral, 4.5 mg/kg | – | antihyperalgesia | ~28% |
| OC[C@H]1O[C@@H](c2ccc(Cl)c(Cc3ccc(O[C@H]4CCOC4)cc3)c2)[C@H](O)[C@@H](O)[C@@H]1O | – | Japanese type 1 diabetes patients | 2.5 mg, day 7, 168 h | baseline: baseline | diastolic blood pressure change | 1.2 mmHg |
| CO[C@H]1C[C@@H]2CC[C@@H](C)[C@@](O)(O2)C(=O)C(=O)N2CCCC[C@H]2C(=O)O[C@H]([C@H](C)C[C@@H]2CC[C@@H](OC(=O)NCCOCCOCCOCCOCCOCCOCCOCCOCCC(=O)N3CCc4cc(Cn5nc(-c6ccc7oc(N)nc7c6)c6c(N)ncnc65)ccc4C3)[C@H](OC)C2)C[C@@H](O)[C@H](C)/C=C(\C)[C@@H](O)[C@@H](OC)C(=O)[C@H](C)C[C@H](C)/C=C/C=C/C=C/1C | RECIST v1.1 | human | dose not given | – | duration of response | > 6 months |

Excerpt of the above:
| Compound | test | test system | setting | scale | measurement | result |
| --- | --- | --- | --- | --- | --- | --- |
| N#Cc1ccc2c(-c3ccncc3)c(-c3ccc(F)cc3)nn2c1 | kinase binding, competitor, MIB/MS competition, refers to: PKH3 | Candida albicans cell lysate | 10 µM | baseline: DMSO | log2 fold change | -0.168 |
| Cc1cc(C)c(CNC(=O)c2cc(Cl)c3c(c2C)O[C@@](C)([C@H]2CC[C@H](N(C)C)CC2)O3)c(=O)[nH]1 | – | relapsed/refractory NHL patients, total incl. ATLL and CTCL | oral, dose not given | – | best overall response ND | 5% |
